{"data": "Measurements of several laboratories", "note": "Each numbered part is a random draw from the data of one study; scales do not carry over between parts. Positions count from the first letter of the parent shown."}
{"data": "Series 1", "target": "CCND2, cyclin fold, Cln2 fusion (human)", "method": "yeast growth competition, sequencing", "sample": "yeast", "setting": "weak parent motif", "relative to": "not given", "direction": "higher = stronger binding", "starting sequence": "CDC42EP1 docking peptide (human); SLVVGKLSFDSSP; partner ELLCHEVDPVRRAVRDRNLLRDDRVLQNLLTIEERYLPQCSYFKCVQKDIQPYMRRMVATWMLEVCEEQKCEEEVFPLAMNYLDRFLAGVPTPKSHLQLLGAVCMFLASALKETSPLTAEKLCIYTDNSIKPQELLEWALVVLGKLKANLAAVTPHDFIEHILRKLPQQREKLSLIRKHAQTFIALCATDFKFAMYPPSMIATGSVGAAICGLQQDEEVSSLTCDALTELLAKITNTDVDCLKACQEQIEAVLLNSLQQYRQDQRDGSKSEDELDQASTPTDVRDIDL"}
{"Variant": "D10A", "normalised enrichment score": 0.137}
{"Variant": "K6A", "normalised enrichment score": -0.142}
{"Variant": "V4A", "normalised enrichment score": 0.0582}
{"Variant": "S11A", "normalised enrichment score": 0.103}
{"Variant": "V3A", "normalised enrichment score": 0.149}
{"Variant": "L2A", "normalised enrichment score": 0.089}
{"data": "Series 2", "target": "Ras GTPase-activating protein-binding protein 1, full length (G3BP1, Homo sapiens, UniProt Q13283)", "method": "RNA Bind-n-Seq", "form": "RNA", "sample": "in vitro", "concentration": "200 nM", "setting": "whole 134-nt RNA, ends assumed", "together with": "150 mM LiCl", "relative to": "input library", "direction": "higher = stronger binding", "all molecules": "7-deaza-guanosine replaces G", "sequence of UniProt Q13283 (whole entry, looked up)": "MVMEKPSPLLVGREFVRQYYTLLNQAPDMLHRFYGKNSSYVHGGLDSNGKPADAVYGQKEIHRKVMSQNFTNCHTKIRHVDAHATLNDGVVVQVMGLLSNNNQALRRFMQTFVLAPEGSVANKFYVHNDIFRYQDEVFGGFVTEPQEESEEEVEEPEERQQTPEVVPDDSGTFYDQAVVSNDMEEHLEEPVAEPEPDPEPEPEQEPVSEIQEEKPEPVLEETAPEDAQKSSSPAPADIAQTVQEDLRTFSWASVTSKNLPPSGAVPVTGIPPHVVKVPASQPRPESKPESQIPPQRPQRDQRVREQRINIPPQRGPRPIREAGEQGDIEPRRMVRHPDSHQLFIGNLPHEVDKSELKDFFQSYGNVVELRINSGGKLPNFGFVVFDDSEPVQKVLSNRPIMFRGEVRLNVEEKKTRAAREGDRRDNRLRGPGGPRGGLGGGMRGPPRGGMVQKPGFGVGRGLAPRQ"}
{"Strand": "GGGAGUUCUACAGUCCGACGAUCUCCUCAAGUCCUGUGCUACACAUCGUAUGUACCGAAUCGGAGGGAGGGGAGGAAAGUAUUAUGUUACGCCGUUCGGAUCUGCACUUCCAGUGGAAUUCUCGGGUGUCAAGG", "log2 enrichment": -0.0789}
{"Strand": "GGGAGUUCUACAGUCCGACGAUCUCCUGUGCUACACAUCGUAUGUACCGAAUCAAAUUUUUAAAUUUUUAAAUUUUUUUAAAAAAGUAUUAUGUUACGCCGUUCGGAUCUGCAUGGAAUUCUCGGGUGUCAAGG", "log2 enrichment": -2.02}
{"Strand": "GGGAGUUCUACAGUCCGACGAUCCACAGACAACACUCACCCACACAGACACAGAGGGAAGGGGUUGGGAUGGGGACAGGGUGCACAGCAGGGCGGGGUAGGACCCCAGCCCCUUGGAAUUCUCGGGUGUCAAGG", "log2 enrichment": -0.146}
{"Strand": "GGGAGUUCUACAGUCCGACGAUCAAGUCCUGUGCUACACAUCGUAUGUACCGAAUCGGGGAAAAAGGGGAGGGGAGGGGAAAGUAUUAUGUUACGCCGUUCGGAUCUGCACUUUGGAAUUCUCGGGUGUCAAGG", "log2 enrichment": 0.548}
{"Strand": "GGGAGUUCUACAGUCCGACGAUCUCAAGUCCUGUGCUACACAUCGUAUGUACCGAAUCGGGAAAGGAAAGGGAAAGGAAAGUAUUAUGUUACGCCGUUCGGAUCUGCACUUCCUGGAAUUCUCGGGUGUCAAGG", "log2 enrichment": -0.501}
{"Strand": "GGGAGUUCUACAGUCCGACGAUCAAGUCCUGUGCUACACAUCGUAUGUACCGAAUCGGGCCCCGGGCCCCGGCCCCGGGGAAAGUAUUAUGUUACGCCGUUCGGAUCUGCACUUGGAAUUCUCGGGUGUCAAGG", "log2 enrichment": -0.42}
{"Strand": "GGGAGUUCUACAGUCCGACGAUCAAGUCCUGUGCUACACAUCGUAUGUACCGAAUCGGGUUUUGGGUUUUGGUUUUGGGGAAAGUAUUAUGUUACGCCGUUCGGAUCUGCACUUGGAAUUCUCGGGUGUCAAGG", "log2 enrichment": -0.00175}
{"Strand": "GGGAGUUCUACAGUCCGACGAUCUGGCCCUGGUGGCAUGCGGGGAGGAAGAGGUGGCCUCAUGGAUCGUGGUGGUCCCGCUGGAAUGUUCAGAGGUGGCCGUGGUGGAGACAGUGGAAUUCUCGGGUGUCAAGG", "log2 enrichment": 0.401}
{"data": "Series 3", "target": "RING finger protein unkempt homolog, zinc fingers 1-6, GST-SBP tag (UNK, Homo sapiens, UniProt Q9C0B0, residues 30-357)", "method": "RNA Bind-n-Seq", "form": "RNA", "sample": "in vitro", "concentration": "not given", "setting": "RNA with constant flanks, ends assumed", "relative to": "input RNA pool", "direction": "higher = stronger binding", "Construct (chain)": "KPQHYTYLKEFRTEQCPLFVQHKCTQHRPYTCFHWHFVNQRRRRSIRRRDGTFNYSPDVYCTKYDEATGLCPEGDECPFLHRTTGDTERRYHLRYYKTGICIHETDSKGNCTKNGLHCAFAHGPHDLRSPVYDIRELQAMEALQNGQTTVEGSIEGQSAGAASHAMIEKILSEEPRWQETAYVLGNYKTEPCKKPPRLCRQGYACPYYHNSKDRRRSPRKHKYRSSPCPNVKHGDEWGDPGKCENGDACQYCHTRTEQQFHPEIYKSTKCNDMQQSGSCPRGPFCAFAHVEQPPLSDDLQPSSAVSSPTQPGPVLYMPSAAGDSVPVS"}
{"Strand": "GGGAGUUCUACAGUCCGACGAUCUUCAGCCCCCUGAAAGCCUCUGGAGAUGGAGAAUCUCUGGAUGAAGAUUCCGAGUUCACCUCCGCCUCUGACUUUGAAAUUGGGCACUUUUUUCGUGAGCGCAUCGUGCCACGGGCUGUCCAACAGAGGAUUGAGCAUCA", "bound/input enrichment [ratio]": 0.0887}
{"Strand": "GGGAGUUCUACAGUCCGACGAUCGCCCGAGGCCUGAAGGAUGCUAACCAAAUUCGAGACGAAGAGCGCGCGGGUCAAAGGCCUCCGUUUUCAUCCUAAAAGACCCUGGAUCCUGACCAGUUUACACAAUGGGGUCAUCCAGUUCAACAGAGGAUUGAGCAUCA", "bound/input enrichment [ratio]": 0.0602}
{"Strand": "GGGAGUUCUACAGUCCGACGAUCUCUUCCUCUACAGCUACAGCUUCCACACAGACGCAGCAUUCGGGAAUGUCCCCGUCACCCCGCAACAGUUAUGAUACUUCCCCACAGCCUUGCACUACCAAUCAAAAUGGGAGGGAGAAUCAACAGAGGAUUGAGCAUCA", "bound/input enrichment [ratio]": 0.207}
{"Strand": "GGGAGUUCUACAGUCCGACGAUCGAAAUGACACUGGCCCAGCUUUUUCUACAGUCAGAGGCUGCUUAUUGUUGUGUCAGUGAAUCCGGAGAACUUGGAAAGGUUCAGUUUCGUGACUUAAAUCCAGAUGUGAAUGUUUUCCAACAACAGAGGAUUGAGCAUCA", "bound/input enrichment [ratio]": 0.11}
{"Strand": "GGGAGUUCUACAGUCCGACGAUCAAAAAACCCCGAUUUUAGAUGUGAUAUUUAGGCUUUCAUUCCAGUUUGUUUUGUUUUUUUGUUCCGAUACCAAUCUUUUAAAUUCUUGCAUUUUAGUAAGAAAGCUAUCUUUUUAUGGAUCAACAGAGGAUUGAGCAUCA", "bound/input enrichment [ratio]": 19.2}
{"Strand": "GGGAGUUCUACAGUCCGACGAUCGUAUCAAAAGUUUUAUUGUCCAUAUGUUCUCUACUUUGUGAUCCUAAUCCAGAUGACCCCUCCGUACCAGAUAUUGCACAAAUCUAUAAAUCAGACAAAGAAAAAUACAACAGACAUGCACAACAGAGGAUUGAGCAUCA", "bound/input enrichment [ratio]": 0.503}
{"Strand": "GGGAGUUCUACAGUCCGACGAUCACGACAUUGCGACAGCGCAGAAAGCCAGUGUUCCACCUGUCCCACGAGGAGCGUGUCCAACACCGGAACAUUAAAGACCUUAAGCUGGCCUUCAGCGAGUUCUACCUCAGUCUCAUCCUGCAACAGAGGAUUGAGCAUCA", "bound/input enrichment [ratio]": 0.0876}
{"Strand": "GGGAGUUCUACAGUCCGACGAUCGAUGAUAAUCACACAAAUGUGGCACUUUUAUGUGACCAGAGUUGUACUUCUUCUCCUGAUCCGUAUUCUCCCUGGAACCACUAGCCAAGGGGAAUCAAGACGACAAGAACCUGGGGACUUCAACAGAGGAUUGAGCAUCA", "bound/input enrichment [ratio]": 0.176}
{"data": "Series 4", "target": "RNA binding protein fox-1 homolog 2, RRM domain, GST-SBP tag (RBFOX2, Homo sapiens, UniProt O43251-10, residues 100-194)", "method": "RNA Bind-n-Seq", "form": "RNA", "sample": "in vitro", "concentration": "365 nM", "setting": "natural RNA segment, single round, ends assumed", "relative to": "no-protein control", "direction": "higher = stronger binding", "Residues (chain)": "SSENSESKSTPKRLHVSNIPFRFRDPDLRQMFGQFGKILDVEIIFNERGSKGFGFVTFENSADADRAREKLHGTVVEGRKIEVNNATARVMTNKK"}
{"Strand": "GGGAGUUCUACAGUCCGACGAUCGGUCUAGAACCCGGCUCUGGGGCACUGGCCUAGUUCCCGACUUGUUUCUCAGGUGUGAAUCAACUUCUUGGGCCUUGGCUCUGAGUUGGAAAAGGUUUUAGAAAAAGUGAUGGAAUUCUCGGGUGCCAA", "RBNS enrichment (R)": 0.262}
{"Strand": "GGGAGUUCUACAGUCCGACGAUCGUGAGUUUUCACAUCCCUGCAUCUUCUGCUUUGCAAUGAAGGUUCUGUCGGUGAGGCCUUCUCUAAUGCAGUAUUCAUGAUGUUCUCAUUCAUGUUCUCAUUCAUGAUGUUGGAAUUCUCGGGUGCCAA", "RBNS enrichment (R)": 0.494}
{"Strand": "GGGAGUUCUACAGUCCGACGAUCGGUGUCCUAAGGUUAAGGCGGUGCGCCUUGUCAUGUGCUCCUUGUACCAUGCCAUCUGUGCCAGUGUGUGUCUGCCUCACCCUGUGCUUGACAUGUUCACCCAUCUUCUCUGGAAUUCUCGGGUGCCAA", "RBNS enrichment (R)": 2.02}
{"Strand": "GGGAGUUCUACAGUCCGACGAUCUUUUUUUUCUUUCUUAAGCAGCCCUUGUGCUUCAGUAUGUCCUUGUCAUCAGUAUUAACUCUGGGAUACUCCGGGCUCUGUGUCUUUCCCUGUGAGGCGACAGUACAUGUUGGAAUUCUCGGGUGCCAA", "RBNS enrichment (R)": 0.702}
{"Strand": "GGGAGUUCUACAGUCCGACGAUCAAGCCCUAGAGCCUUGAACCAGGAAUAUCCAGGAAGAGGAAAUUCCCUUUGAGCCCCCAGAUGGUAUUGCAGCUUCACUGCCUGCGUUCCUGGGAGCGUCUGGAGCUCACUGGAAUUCUCGGGUGCCAA", "RBNS enrichment (R)": 0.451}
{"Strand": "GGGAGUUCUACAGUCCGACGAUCAGUGUAUUAAUCAUAGAUUAUUAUAAACUAUAAACUUAAGGGCAAGGAAUUUAUUACAAUGUAUCUUUAUUAAAACAAAAGGGUGUAUAGUGUUCACAAACUGUGAAAAUUGGAAUUCUCGGGUGCCAA", "RBNS enrichment (R)": 0.779}
{"Strand": "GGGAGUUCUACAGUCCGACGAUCAAAAAAAUCAGUGUUUAAAUAAAGACCUAUGUACUUAAUCCUUUAACUCUGCGGAUAGCAUUUGGUAGGUAGUGAUUAACUGUGAAUAAUAAAUACACAAUGAAUUCUUCUGGAAUUCUCGGGUGCCAA", "RBNS enrichment (R)": 0.741}
{"Strand": "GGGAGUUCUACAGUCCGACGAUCAGAAUUACCUAUUCUACGUGCCUUUUCUUAGGAAAAGAGAGUACUGGAUCAUGGUUUUCUUCCUUACUUACAGGUUGCUUCACACUGAGUGAUAAUUUAAAAUUGUUUCUUGGAAUUCUCGGGUGCCAA", "RBNS enrichment (R)": 0.28}
{"note": "Excerpt of the above (series 3):"}
{"Strand": "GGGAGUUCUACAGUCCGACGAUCACGACAUUGCGACAGCGCAGAAAGCCAGUGUUCCACCUGUCCCACGAGGAGCGUGUCCAACACCGGAACAUUAAAGACCUUAAGCUGGCCUUCAGCGAGUUCUACCUCAGUCUCAUCCUGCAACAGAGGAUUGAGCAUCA", "bound/input enrichment [ratio]": 0.0876}
{"Strand": "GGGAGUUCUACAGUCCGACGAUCUCUUCCUCUACAGCUACAGCUUCCACACAGACGCAGCAUUCGGGAAUGUCCCCGUCACCCCGCAACAGUUAUGAUACUUCCCCACAGCCUUGCACUACCAAUCAAAAUGGGAGGGAGAAUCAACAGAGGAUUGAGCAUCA", "bound/input enrichment [ratio]": 0.207}
{"Strand": "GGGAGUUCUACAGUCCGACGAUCGAAAUGACACUGGCCCAGCUUUUUCUACAGUCAGAGGCUGCUUAUUGUUGUGUCAGUGAAUCCGGAGAACUUGGAAAGGUUCAGUUUCGUGACUUAAAUCCAGAUGUGAAUGUUUUCCAACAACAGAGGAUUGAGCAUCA", "bound/input enrichment [ratio]": 0.11}
{"Strand": "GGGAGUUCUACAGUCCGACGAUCGAUGAUAAUCACACAAAUGUGGCACUUUUAUGUGACCAGAGUUGUACUUCUUCUCCUGAUCCGUAUUCUCCCUGGAACCACUAGCCAAGGGGAAUCAAGACGACAAGAACCUGGGGACUUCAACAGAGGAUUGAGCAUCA", "bound/input enrichment [ratio]": 0.176}
{"Strand": "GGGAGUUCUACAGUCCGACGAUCGUAUCAAAAGUUUUAUUGUCCAUAUGUUCUCUACUUUGUGAUCCUAAUCCAGAUGACCCCUCCGUACCAGAUAUUGCACAAAUCUAUAAAUCAGACAAAGAAAAAUACAACAGACAUGCACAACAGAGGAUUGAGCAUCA", "bound/input enrichment [ratio]": 0.503}
